Results gathered from unrelated publications.
Compare with care: the assays were run in different laboratories. ± gives the spread as reported.

Compound	test	test system	conditions	how to read	endpoint	result
CCN(CCCCOc1ccc(CCC(=O)N2CCC(Cc3ccccc3)CC2)cc1OC)Cc1ccccc1	decrease, ELISA, refers to: IL-6	APP/PS1 transgenic mice, cerebral cortex	dose not given		protein level	decreased
COc1ccc2sc3c(c2c1)SCCNC3=O		mouse, CFPAC-1 xenograft	intravenous, 37.5 and 25 mg/kg/day, daily for 4 days		tumour growth	no effect
CC(C)C[C@H](NC(=O)[C@H](CC(N)=O)NC(=O)[C@@H](NC(=O)[C@H](Cc1ccccc1)NC(=O)[C@H](CC(C)C)NC(=O)[C@@H]1CCCN1C(=O)[C@H](C)NC(=O)[C@@H](N)Cc1ccccc1)[C@@H](C)O)C(=O)O		C57BL/6 mouse, HSV-1 infected, trigeminal ganglion	dose not given, 8 dpi	relative to: all HSV epitopes	share of HSV-specific CD8 response	4.6%
CCCCCCCCN(CCC(=O)Nc1ccccc1)C(=O)c1ccccn1		Lmna G609G/G609G mouse	intraperitoneal, 40 mg/kg		maximum survival	194 days
C[C@@H](NC(=O)[C@@H](CCC(N)=O)NC(=O)[C@@H](C)NC(=O)[C@@H](CCCCN)NC(=O)[C@@H](CCC(N)=O)NC(=O)[C@@H](C)NC(=O)[C@@H](CCCCN)NC(=O)[C@@H](CCC(N)=O)NC(=O)[C@@H](C)NC(=O)[C@@H](CCC(N)=O)NC(=O)[C@@H](CCCCN)NC(=O)[C@@H](C)NC(=O)[C@@H](CCC(N)=O)NC(=O)[C@@H](CCCCN)NC(=O)[C@@H](C)NC(=O)[C@@H](CCC(N)=O)NC(=O)[C@@H](C)NC(=O)[C@@H](CCCCN)NC(=O)[C@@H](CCC(N)=O)NC(=O)[C@@H](C)NC(=O)[C@@H](CCCCN)NC(=O)[C@@H](CO)NC(=O)[C@@H](Cc1ccc(O)cc1)NC(=O)CNC(=O)CNC(=O)CN)C(=O)N[C@H](CCCCN)C(=O)N[C@H](CCC(N)=O)C(=O)N[C@H](C)C(=O)N[C@H](CCCCN)C(=O)N[C@H](CCC(N)=O)C(=O)O		Aβ(1-40) fibrils	1 h, room temperature	relative to: 1 M NaCl over PBS	binding ratio	0.29
Cc1cc(Nc2nc(C[C@@]3(C(=O)O)CCN(Cc4cccc(Cl)c4F)[C@H](C)C3)cc(C)c2F)[nH]n1		mouse, NCI-H446 xenograft	oral, 20 mg/kg once daily, monotherapy		tumour growth inhibition	97%
CCCCCCCCCCCCCCCC(=O)N[C@@H](CCC(=O)NCCOCCOCCC(=O)NCCOCCOCCC(=O)NCCCC[C@H](NC(=O)[C@H](CC(=O)O)NC(=O)[C@H](CC(C)C)NC(=O)[C@H](Cc1ccc(O)cc1)NC(=O)[C@H](CCCCN)NC(=O)[C@H](CO)NC(=O)[C@H](Cc1ccc(O)cc1)NC(=O)[C@H](CC(=O)O)NC(=O)[C@H](CO)NC(=O)[C@@H](NC(=O)[C@H](Cc1ccccc1)NC(=O)[C@@H](NC(=O)CNC(=O)[C@H](CCC(N)=O)NC(=O)[C@@H](CO)NC(=O)[C@@H](N)Cc1c[nH]cn1)[C@@H](C)O)[C@@H](C)O)C(=O)N[C@@H](CCCNC(=N)N)C(=O)N[C@@H](CCCNC(=N)N)C(=O)N[C@@H](C)C(=O)N[C@@H](CCC(N)=O)C(=O)N[C@@H](CC(=O)O)C(=O)N[C@@H](Cc1ccccc1)C(=O)N[C@H](C(=O)N[C@@H](CCC(N)=O)C(=O)N[C@@H](Cc1c[nH]c2ccccc12)C(=O)N[C@@H](CC(C)C)C(=O)N[C@@H](CC(C)C)C(=O)N[C@@H](CC(N)=O)C(=O)N[C@H](C(=O)NCC(=O)NCC(=O)N1CCC[C@H]1C(=O)N[C@@H](CO)C(=O)N[C@@H](CO)C(=O)NCC(=O)N[C@@H](C)C(=O)N1CCC[C@H]1C(=O)N1CCC[C@H]1C(=O)N1CCC[C@H]1C(=O)N[C@@H](CO)C(N)=O)[C@@H](C)O)C(C)C)C(=O)O		Sprague-Dawley rat bile duct ligation, liver	dose not given		α-SMA expression	decreased
NCCCC[C@H](NC(=O)CNC(=O)CNC(=O)[C@H](CCCCN)NC(=O)CNC(=O)CNC(=O)CNC(=O)[C@H](CCCCN)NC(=O)CNC(=O)CNC(=O)[C@H](CCCCN)NC(=O)CNC(=O)CNC(=O)CNC(=O)[C@H](CCCCN)NC(=O)CNC(=O)CNC(=O)[C@H](CCCCN)NC(=O)CNC(=O)CNC(=O)CNC(=O)[C@H](CCCCN)NC(=O)CNC(=O)CNC(=O)[C@H](CCCCN)NC(=O)[C@H](CO)NC(=O)[C@H](Cc1ccc(O)cc1)NC(=O)CNC(=O)CNC(=O)CN)C(=O)NCC(=O)O		human ALκ4 amyloid extract	1 h, room temperature	relative to: 1 M NaCl over PBS	binding ratio	0.04
CC[C@H](C)[C@@H]1NC(=O)[C@@H](NC(=O)CNC(=O)c2ccc(F)cc2)CSSC[C@@H]2NC(=O)[C@H](C)NC(=O)CNC(=O)[C@@H]3CCCN3C(=O)[C@@H]3CSSC[C@@H](C(=O)NCC(=O)O)NC(=O)[C@H](Cc4ccc(O)cc4)NC(=O)CNC(=O)[C@H](CC(N)=O)NC(=O)CNC(=O)[C@H](CCCNC(=N)N)NC(=O)[C@H](CSSC[C@H](NC(=O)[C@H](CCCNC(=N)N)NC(=O)[C@H](Cc4ccccc4)NC(=O)[C@H](CC(C)C)NC(=O)[C@H](CC(C)C)NC(=O)[C@H]([C@@H](C)O)NC(=O)CNC(=O)[C@H](CC(C)C)NC(=O)[C@H](CC(=O)O)NC(=O)[C@H]([C@@H](C)O)NC(=O)[C@H](CCCNC(=N)N)NC(=O)[C@H](CCSC)NC(=O)[C@H](CC(N)=O)NC(=O)[C@H](CC(C)C)NC1=O)C(=O)N[C@@H](CCCNC(=N)N)C(=O)N[C@@H](CCCNC(=N)N)C(=O)N[C@@H](CC(=O)O)C(=O)N[C@@H](CO)C(=O)N[C@@H](CC(=O)O)C(=O)N3)NC(=O)[C@H]([C@@H](C)CC)NC2=O [fluorine-18 labelled]	γ-counting	mouse, BxPC-3 xenograft (integrin αvβ6-positive), excised tumour	0.5 h post injection		tumour uptake	2.2 ± 0.5 %ID/g
CC[C@H](C)[C@H](NC(=O)[C@@H](NC(=O)[C@H](CC(=O)O)NC(C)=O)[C@@H](C)O)C(=O)N[C@@H](CCCNC(=N)N)C(=O)N[C@@H](CC(C)C)C(=O)N[C@@H](CC(C)C)C(=O)N[C@@H](Cc1ccccc1)C(=O)N[C@@H](CCC(N)=O)C(=O)N[C@@H](CC(C)C)C(=O)N[C@@H](CCSC)C(=O)N[C@@H](CCCNC(=N)N)C(=O)N1CCC[C@H]1C(=O)N1CCC[C@H]1C(=O)N[C@@H](CC(N)=O)C(=O)N[C@@H](CCSC)C(=O)N[C@H](C(=O)N1CCC[C@H]1C(=O)N[C@@H](C)C(=O)N[C@H](C(=O)N[C@@H](CC(N)=O)C(=O)N[C@@H](C)C(N)=O)C(C)C)[C@@H](C)O	refers to: HA-29 tetramer	antigen-experienced tetramer+ CD4 T cells, healthy adults, HLA-DRB1*0101	dose not given		α4β7+ CCR9+ cells	14.3%
CCn1c2ccccc2c2cc(C(O)c3ccc(C)c4ccccc34)ccc21 (centres unmarked)	tubulin polymerisation, inhibitor, absorbance				IC50	1.4 µM
CC(C)C[C@H](NC(=O)CN)C(=O)NCC(=O)N[C@@H](CCCCN)C(=O)N[C@@H](CC(C)C)C(=O)N[C@@H](CC(C)C)C(=O)N[C@@H](Cc1c[nH]cn1)C(=O)N[C@@H](C)C(=O)N[C@@H](C)C(=O)N[C@@H](CCCCN)C(=O)N[C@@H](CCCCN)C(=O)N[C@@H](CC(C)C)C(=O)NCC(=O)N[C@@H](CCCCN)C(=O)N[C@@H](C)C(=O)N[C@@H](Cc1c[nH]c2ccccc12)C(=O)N[C@@H](CC(C)C)C(=O)NCC(=O)N[C@@H](CCC(=O)O)C(=O)N[C@@H](CC(C)C)C(=O)N[C@@H](CC(C)C)C(=O)N[C@@H](C)C(=O)N[C@@H](C)C(=O)O		POPC/POPG 1:1 vesicles			static quenching constant	140 M⁻¹
CC(=O)N[C@@H](Cc1c[nH]c2ccccc12)C(=O)NCC(=O)N[C@@H](C)C(=O)N[C@H]1CSCC(=O)Nc2ccc(cc2)N=Nc2ccc(c(S(=O)(=O)O)c2)-c2ccc(cc2S(=O)(=O)O)N=Nc2ccc(cc2)NC(=O)CSC[C@@H](C(=O)N[C@@H](CCCNC(=N)N)C(=O)N[C@@H](CCC(=O)O)C(=O)N[C@@H](C)C(=O)N[C@@H](CCC(N)=O)C(N)=O)NC(=O)[C@H](C)NC(=O)[C@H](C)NC(=O)[C@H](CCC(=O)O)NC(=O)[C@H](CCCNC(=N)N)NC(=O)[C@H](C)NC(=O)[C@H](C)NC(=O)[C@H](C)NC(=O)[C@H](CCC(=O)O)NC(=O)[C@H](CCCNC(=N)N)NC(=O)[C@H](C)NC(=O)[C@H](C)NC(=O)[C@H](C)NC(=O)[C@H](CCC(=O)O)NC(=O)[C@H](CCCNC(=N)N)NC(=O)[C@H](C)NC(=O)[C@H](C)NC(=O)[C@H](C)NC(=O)[C@H](CCC(=O)O)NC1=O	cis-to-trans reversion, UV-Vis absorbance	10 mM phosphate buffer	pH 7.0, 20 °C, together with: 365 nm irradiation		thermal relaxation half-life	29.1 ± 1.2 min
CC[C@H](C)[C@H](NC(=O)[C@H](Cc1ccc(O)cc1)NC(=O)[C@@H]1CCCN1C(=O)[C@H](CCCNC(=N)N)NC(=O)[C@H](CCCNC(=N)N)NC(=O)[C@@H](NC(=O)[C@H](CCCCN)NC(=O)[C@H](CC(N)=O)NC(=O)[C@H](CCC(=O)O)NC(=O)[C@H](Cc1ccc(O)cc1)NC(=O)[C@H](CC(C)C)NC(=O)[C@@H]1CCC(=O)N1)[C@@H](C)O[C@H]1O[C@H](CO)[C@H](O)[C@H](O[C@@H]2O[C@H](CO)[C@H](O)[C@H](O)[C@H]2O)[C@H]1NC(C)=O)C(=O)N[C@@H](CC(C)C)C(=O)O	6 Hz seizure test	CF-1 mouse	intracerebroventricular, 30 min, 32 mA corneal stimulation		ED50	0.0004 nmol
O=C(O)/C=C/c1ccc(O)cc1			1000 µg/mL		DPPH radical scavenging	85.8 ± 0.3%
CC(C)[C@H](N)C(=O)N[C@@H](Cc1ccc(O)cc1)C(=O)N[C@@H](CCCCN)C(=O)N[C@H](C(=O)N[C@@H](CCCCN)C(=O)N[C@H](C(=O)N[C@@H](CCCCN)C(=O)N[C@H](C(=O)N[C@@H](CCCCN)C(=O)N[C@H](C(=O)N[C@@H](CCCCN)C(=O)N[C@H](C(=O)N[C@@H](CCCCN)C(=O)N[C@H](C(=O)N[C@@H](CCCCN)C(=O)N[C@H](C(=O)N[C@@H](CCCCN)C(=O)N[C@H](C(=O)O)[C@@H](C)O)C(C)C)[C@@H](C)O)C(C)C)[C@@H](C)O)C(C)C)[C@@H](C)O)C(C)C	circular dichroism, refers to: enoxaparin concentration	PBS	0.05 mg/mL		transition midpoint	~7 µM
COc1ccc([N+](=O)[O-])cc1NC(=O)CCC(=O)[O][Zn][O]C(=O)CCC(=O)Nc1cc([N+](=O)[O-])ccc1OC.c1ccncc1	antioxidant activity		1000 µg/mL		DPPH scavenging	74.2 ± 0.77%
